Measurements pooled from the literature.
Each line is one published result; not all experiments were run side by side. “And” joins repeats or separate records; there may be more than shown. ± gives the spread as reported.

Structure (SMILES) | assay | system | setting | how to read | measurement | value
CC[C@H](C)[C@H](NC(C)=O)C(=O)N[C@H]1CSSC[C@@H](C(=O)N[C@H](C(N)=O)[C@@H](C)O)NC(=O)[C@H](CCCNC(=N)N)NC(=O)[C@H](Cc2c[nH]cn2)NC(=O)[C@H](C)NC(=O)CNC(=O)[C@H](Cc2c[nH]c3ccccc23)NC(=O)[C@H](CC(=O)O)NC(=O)[C@H](CCC(N)=O)NC(=O)[C@H](Cc2c[nH]c3ccccc23)NC(=O)[C@H](C(C)C)NC1=O | isocratic RP-HPLC, C18 | 32% acetonitrile, phosphate pH 7.4, 1% TFA | 25 °C | – | log retention factor | -0.018
CCOC(=O)COc1cccc2c1[n+]([O-])c1cc(Cl)c(Cl)cc1[n+]2[O-] | PAMPA | artificial membrane in PBS | 50 µM, 5 h | – | log effective permeability | -5.16
O=C(Nc1cnn2ccc(N3CCC[C@@H]3c3cc(F)ccc3F)nc12)N1CC[C@H](O)C1 | – | porcine brain polar lipids | 10 µM, pH 7.4, 0.2% DMSO | – | log D brain polar lipid | 0.06 ± 0.06
CN(C)CCCC1(c2ccc(F)cc2)OCc2cc(C#N)ccc21 (stereo not drawn) | SPME sorption isotherm | PBS | – | – | log Freundlich coefficient | 1.76
O=C(O)CN1Cc2cccc(n2)CN(CC(=O)O)Cc2cccc(n2)C1 | potentiometric titration | 0.16 M NaCl | 25 °C | – | log KHL | 9.25
CC[C@H](C)[C@H](NC(C)=O)C(=O)N[C@H]1CSSC[C@@H](C(=O)N[C@H](C(N)=O)[C@@H](C)O)NC(=O)[C@H](CCCNC(=N)N)NC(=O)[C@H](Cc2c[nH]cn2)NC(=O)[C@H](C)NC(=O)CNC(=O)[C@H](Cc2c[nH]c3ccccc23)NC(=O)[C@H](CC(=O)O)NC(=O)[C@H](CCC(N)=O)NC(=O)[C@H](Cc2cn(C)c3ccccc23)NC(=O)[C@H](C(C)C)NC1=O | RP-HPLC, C18 | 28% acetonitrile isocratic | pH 7.4 | – | log retention factor | 0.771
Cc1cc2c(cc1C)[n+]([O-])c1c(O)cccc1[n+]2[O-] | PAMPA | artificial membrane in PBS | 50 µM, 5 h | – | log effective permeability | -5.45
COc1cc2nc(c1)CNCc1cc(OC)cc(n1)CNC2 | protonation constant, potentiometry | – | 298 K, ionic strength 0.15 M NaCl | – | log K2 | 7
CC[C@H](C)[C@H](NC(=O)[C@H](CCCNC(=N)N)NC(=O)[C@H](CCC(=O)O)NC(C)=O)C(=O)N[C@H]1CSSC[C@@H](C(=O)N[C@H](C(N)=O)[C@@H](C)O)NC(=O)[C@H](CCCNC(=N)N)NC(=O)[C@H](Cc2c[nH]cn2)NC(=O)[C@H](Cc2cccc3ccccc23)NC(=O)CNC(=O)[C@H](Cc2c[nH]c3ccccc23)NC(=O)[C@H](CC(=O)O)NC(=O)[C@H](CCC(N)=O)NC(=O)[C@H](Cc2c[nH]c3ccccc23)NC(=O)[C@H](C(C)C)NC1=O | isocratic RP-HPLC, C18 | 32% acetonitrile, phosphate pH 7.4, 1% TFA | 25 °C | – | log retention factor | 0.122
CC(C)(Oc1ccc(CCNC(=O)c2ccc(Cl)cc2)cc1)C(=O)O | SPME sorption isotherm | PBS | – | – | log Freundlich coefficient | 0.44
CC(C)(C)C(=O)Oc1cccc2c1[n+]([O-])c1cccc(OC(=O)C(C)(C)C)c1[n+]2[O-] | PAMPA | artificial membrane in PBS | 50 µM, 5 h | – | log effective permeability | -6.06
NCCS | binding, equilibrium dialysis LC-MS | – | 5 µM, thermostabilized A2AR-BRIL construct | baseline: no-protein control, direction not given | z-scored log2 fold change | 0.187
c1ccc2cc3ccccc3cc2c1 | – | fresh water | 12 (unit not given), 20 °C, S100 sampler, 100 µm | – | log K(PDMS-water) | 3.88 ± 0.01
Oc1ccc(Br)c2cccnc12 | – | oil/water | pH 7.4 | – | log P | 2.03
CC[C@H](C)[C@H](NC(C)=O)C(=O)N[C@H]1CSSC[C@@H](C(=O)N[C@H](C(N)=O)[C@@H](C)O)NC(=O)[C@H](CCCNC(=N)N)NC(=O)[C@H](Cc2c[nH]cn2)NC(=O)[C@@](C)(CC)NC(=O)CNC(=O)[C@H](Cc2c[nH]c3ccccc23)NC(=O)[C@H](CC(=O)O)NC(=O)[C@H](CCC(N)=O)NC(=O)[C@H](Cc2c[nH]c3ccccc23)NC(=O)[C@H](C(C)C)NC1=O | RP-HPLC, C18 | 28% acetonitrile isocratic | pH 7.4 | – | log retention factor | 0.591
CC(C)(Oc1ccc(Cl)cc1)C(=O)O | SPME sorption isotherm | PBS | – | – | log Freundlich coefficient | 0.64
CC[C@H](C)[C@H](NC(=O)[C@H](CO)NC(=O)[C@H](CCCNC(=N)N)NC(C)=O)C(=O)N[C@H]1CSSC[C@@H](C(=O)N[C@H](C(N)=O)[C@@H](C)O)NC(=O)[C@H](CCCNC(=N)N)NC(=O)[C@H](Cc2c[nH]cn2)NC(=O)[C@H](C)NC(=O)CNC(=O)[C@H](Cc2c[nH]c3ccccc23)NC(=O)[C@H](CC(=O)O)NC(=O)[C@H](CCC(N)=O)NC(=O)[C@H](Cc2ccc3ccccc3c2)NC(=O)[C@H](C(C)C)NC1=O | RP-HPLC, C18 | 28% acetonitrile isocratic | pH 7.4 | – | log retention factor | 0.628

Structure (SMILES) | assay | system | setting | how to read | measurement | value
Cc1c(C)[n+]([O-])c2c(O)cccc2[n+]1[O-] | PAMPA | artificial membrane in PBS | 50 µM, 5 h | – | log effective permeability | -4.35
c1cc2nc(c1)CNCc1cccc(n1)CNC2 | protonation constant, potentiometry | – | 298 K, ionic strength 0.15 M NaCl | – | log K2 | 7.36
c1ccc2c(c1)ccc1ccccc12 | – | fresh water | 12 (unit not given), 20 °C | – | log K(PDMS-water) | 3.78 ± 0.03
CCN(CC)C(=O)COc1cccc2c1[n+]([O-])c1ccccc1[n+]2[O-] | PAMPA | artificial membrane in PBS | 50 µM, 5 h | – | log effective permeability | -5.2
CC(=O)N[C@@H](CC(N)=O)C(=O)N[C@@H](CC(N)=O)C(=O)N[C@@H](CC(C)C)C(=O)N[C@H]1CSSC[C@@H](C(=O)N[C@H](C(N)=O)[C@@H](C)O)NC(=O)[C@H](CCCNC(=N)N)NC(=O)[C@H](Cc2c[nH]cn2)NC(=O)[C@H](C)NC(=O)CNC(=O)[C@H](Cc2c[nH]c3ccccc23)NC(=O)[C@H](CC(=O)O)NC(=O)[C@H](CCC(N)=O)NC(=O)[C@H](Cc2c[nH]c3ccccc23)NC(=O)[C@H](C(C)C)NC1=O | RP-HPLC, C18 | 28% acetonitrile isocratic | pH 7.4 | – | log retention factor | 0.02
CC(C)NCC(O)COc1ccc(CC(N)=O)cc1 (stereo not drawn) | SPME sorption isotherm | PBS | – | – | log Freundlich coefficient | 0.99
C=CC[C@@]1(C)NC(=O)CNC(=O)[C@H](Cc2c[nH]c3ccccc23)NC(=O)[C@H](CC(=O)O)NC(=O)[C@H](CCC(N)=O)NC(=O)[C@H](Cc2c[nH]c3ccccc23)NC(=O)[C@H](C(C)C)NC(=O)[C@@H](NC(=O)[C@@H](NC(C)=O)[C@@H](C)CC)CSSC[C@@H](C(=O)N[C@H](C(N)=O)[C@@H](C)O)NC(=O)[C@H](CCCNC(=N)N)NC(=O)[C@H](Cc2c[nH]cn2)NC1=O | RP-HPLC, C18 | 28% acetonitrile isocratic | pH 7.4 | – | log retention factor | 0.613
CCCCC(=O)Oc1cccc2c1[n+]([O-])c1cccc(OC(=O)CCCC)c1[n+]2[O-] | PAMPA | artificial membrane in PBS | 50 µM, 5 h | – | log effective permeability | -7.74
COc1ccc2cc(CCC[18F])ccc2c1 | – | n-octanol/0.1 M phosphate buffer | pH 7.4, 25 °C, per radiosynthesis batch | – | log P | 2.54 and 2.47 and 2.37
CC(C)(C)OC(=O)COc1cccc2c1[n+]([O-])c1ccccc1[n+]2[O-] | PAMPA | artificial membrane in PBS | 50 µM, 5 h | – | log effective permeability | -4.76
C[Si](C)(C)O[Si](C)(C)O[Si](C)(C)C | – | 1-octanol/air | 25 °C | – | log KOA | 3.75
Nc1nc2c(ncn2[C@@H]2O[C@H](COP(=O)(O)O)[C@@H](O)[C@H]2O)c(=O)[nH]1 | binding, equilibrium dialysis LC-MS | – | 5 µM, thermostabilized A2AR-BRIL construct | baseline: no-protein control, direction not given | z-scored log2 fold change | 0.168
CCOC(=O)Oc1cccc2c1[n+]([O-])c1cccc(O)c1[n+]2[O-] | PAMPA | artificial membrane in PBS | 50 µM, 5 h | – | log effective permeability | -7.32
C[Si](C)(C)O[Si](C)(C)C | – | 1-octanol/water | 0.7-42 µg/L in water, 12.4 °C | – | log KOW | 5.05
CC(=O)N[C@@H](CC(N)=O)C(=O)N[C@@H](CCCNC(=N)N)C(=O)N[C@@H](CC(C)C)C(=O)N[C@H]1CSSC[C@@H](C(=O)N[C@H](C(N)=O)[C@@H](C)O)NC(=O)[C@H](CCCNC(=N)N)NC(=O)[C@H](Cc2c[nH]cn2)NC(=O)[C@H](Cc2cccc3ccccc23)NC(=O)CNC(=O)[C@H](Cc2c[nH]c3ccccc23)NC(=O)[C@H](CC(=O)O)NC(=O)[C@H](CCC(N)=O)NC(=O)[C@H](Cc2c[nH]c3ccccc23)NC(=O)[C@H](C(C)C)NC1=O | isocratic RP-HPLC, C18 | 32% acetonitrile, phosphate pH 7.4, 1% TFA | 25 °C | – | log retention factor | 0.43
O=C(O)c1ccc2c(c1)nc(NCc1ccccc1)c1ncncc12 | PAMPA | PBS | 5 h, pH 7.4 | – | log Papp | -5.55

Repeated from above:
Structure (SMILES) | assay | system | setting | how to read | measurement | value
COc1ccc2cc(CCC[18F])ccc2c1 | – | n-octanol/0.1 M phosphate buffer | pH 7.4, 25 °C, per radiosynthesis batch | – | log P | 2.54 and 2.47 and 2.37
Cc1cc2c(cc1C)[n+]([O-])c1c(O)cccc1[n+]2[O-] | PAMPA | artificial membrane in PBS | 50 µM, 5 h | – | log effective permeability | -5.45
CC(C)(C)OC(=O)COc1cccc2c1[n+]([O-])c1ccccc1[n+]2[O-] | PAMPA | artificial membrane in PBS | 50 µM, 5 h | – | log effective permeability | -4.76
CC(=O)N[C@@H](CC(N)=O)C(=O)N[C@@H](CC(N)=O)C(=O)N[C@@H](CC(C)C)C(=O)N[C@H]1CSSC[C@@H](C(=O)N[C@H](C(N)=O)[C@@H](C)O)NC(=O)[C@H](CCCNC(=N)N)NC(=O)[C@H](Cc2c[nH]cn2)NC(=O)[C@H](C)NC(=O)CNC(=O)[C@H](Cc2c[nH]c3ccccc23)NC(=O)[C@H](CC(=O)O)NC(=O)[C@H](CCC(N)=O)NC(=O)[C@H](Cc2c[nH]c3ccccc23)NC(=O)[C@H](C(C)C)NC1=O | RP-HPLC, C18 | 28% acetonitrile isocratic | pH 7.4 | – | log retention factor | 0.02
CC(=O)N[C@@H](CC(N)=O)C(=O)N[C@@H](CCCNC(=N)N)C(=O)N[C@@H](CC(C)C)C(=O)N[C@H]1CSSC[C@@H](C(=O)N[C@H](C(N)=O)[C@@H](C)O)NC(=O)[C@H](CCCNC(=N)N)NC(=O)[C@H](Cc2c[nH]cn2)NC(=O)[C@H](Cc2cccc3ccccc23)NC(=O)CNC(=O)[C@H](Cc2c[nH]c3ccccc23)NC(=O)[C@H](CC(=O)O)NC(=O)[C@H](CCC(N)=O)NC(=O)[C@H](Cc2c[nH]c3ccccc23)NC(=O)[C@H](C(C)C)NC1=O | isocratic RP-HPLC, C18 | 32% acetonitrile, phosphate pH 7.4, 1% TFA | 25 °C | – | log retention factor | 0.43
